# Experimental data from different studies.
# Compare with care: the assays were run in different laboratories. ± marks the error that the study gave.
Compound,cell line,test,test system,conditions,scale,endpoint,result
CC1(C)C=Cc2c(ccc3c(=O)cc(-c4ccccc4)oc23)O1,differentiated SH-SY5Y,MTT,,100 µM,relative to: control,viability,79.3 ± 3%
Cc1ncsc1-c1ccc(CNC(=O)[C@@H]2C[C@@H](O)CN2C(=O)[C@@H](NC(=O)CCCCCCCCCC(=O)NCCN2CCN(Cc3cccc(-c4ccc(N5CCN(C)CC5)c(NC(=O)c5c[nH]c(=O)cc5C(F)(F)F)c4)c3)CC2)C(C)(C)C)cc1,Sf9,LC-MS,,"10 µM, 24 h",relative to: total recovery,cellular fraction of compound,29%
CCCCn1cc(C(=O)O)c(=O)c2cc(F)c(Nc3ccccc3Cl)c([N+](=O)[O-])c21,K562,"cell growth, SRB",,72 h,,IC50,91 ± 5.7 µg/mL
COC(=O)C1CN1S(=O)(=O)c1ccc(C)cc1F (stereo not shown),Balb/c 3T3 fibroblasts,"cytotoxicity, neutral red uptake",DMEM with 5% FBS,24 h,,IC50,866 ± 173 µM
COc1c(C(=O)/C=C/c2ccccc2)ccc2occc12,differentiated SH-SY5Y,MTT,,0.1 µM,relative to: control,viability,102 ± 4.2%
CCCCn1cc(C(=O)O)c(=O)c2cc(F)c(Nc3cccc(Cl)c3)c(N)c21,PANC-1,"cell growth, SRB",,72 h,,IC50,2.3 ± 0.07 µg/mL
COC(=O)C1CN1S(=O)(=O)c1ccc(OC)cc1 (stereo not shown),Balb/c 3T3 fibroblasts,"cytotoxicity, neutral red uptake",DMEM with 5% FBS,24 h,,IC50,1250 ± 191 µM
COC(=O)[C@H](CO)NC(=O)[C@H](CCCCN(CC(C)C)C1CC2CCC1C2)NC(=O)[C@H](CCCN1CCOCC1)NC(=O)[C@H](C1CCC1)N(C)C(=O)[C@H](Cc1ccccc1)NC(=O)c1ccc(C(C)(C)C)cc1 (stereo partly shown),mouse embryonic stem cells,"cytotoxicity, CellTiter-Glo",,48 h,,DC50,3.6 ± 1.8 µM
CC(=O)N[C@@H](CO)C(=O)N[C@@H](CC(=O)O)C(=O)N[C@@H](CCCCNC(=O)CCCC[C@@H]1SC[C@@H]2NC(=O)N[C@@H]21)C(=O)N1CCC[C@H]1C(=O)O,A549,flow cytometry,,"1 mg/mL, 2 h, serum-free, with: NaN3 10 mM",relative to: no inhibitor,reduction of cellular uptake,> 80%
NC(=S)N/N=C/c1ccc(OCc2cccc(F)c2)cc1,IMR-32,MTT,,concentration not given,,cytotoxicity,not toxic
C[C@H](NC(=O)[C@H](CCCNC(=N)N)NC(=O)[C@H](CCC(=O)O)NC(=O)[C@H](CCCNC(=N)N)NC(=O)[C@H](CCCNC(=N)N)NC(=O)[C@@H](NC(=O)[C@H](CCCNC(=N)N)NC(=O)[C@H](C)NC(=O)[C@H](CCCNC(=N)N)NC(=O)[C@H](CCC(=O)O)NC(=O)[C@@H](N)CCCNC(=N)N)[C@@H](C)O)C(=O)N[C@@H](CCCNC(=N)N)C(=O)N[C@H](C(=O)N[C@@H](CCCNC(=N)N)C(=O)N[C@@H](CCC(=O)O)C(=O)N[C@@H](CCCNC(=N)N)C(=O)N[C@@H](C)C(=O)N[C@@H](CCCNC(=N)N)C(=O)N[C@H](C(=O)N[C@@H](CCCNC(=N)N)C(=O)O)[C@@H](C)O)[C@@H](C)O,A-375,MTT,,"up to 100 µM, 24 h",,cytotoxicity,not toxic
COc1c2c(cc3oc(-c4ccccc4)cc(=O)c13)OC(C)(C)C=C2,differentiated SH-SY5Y,MTT,,100 µM,relative to: control,viability,81.5 ± 1.3%
C(#Cc1cncc(OC[C@@H]2CCN2)c1)c1ccccc1,Caco-2,Caco-2 permeability,,"100 µM, 2 h, pH 7.4, with: MK-571 100 µM",,Papp B to A,26.9 ± 0.32 ×10⁻⁶ cm/s
